Published values pooled from the literature.
Each line is one published result; not all experiments were run side by side.
GBA2: Beta-glucosidase (GBA2, Homo sapiens, UniProt Q9HCG7)
Sequence of UniProt Q9HCG7 (whole entry, looked up): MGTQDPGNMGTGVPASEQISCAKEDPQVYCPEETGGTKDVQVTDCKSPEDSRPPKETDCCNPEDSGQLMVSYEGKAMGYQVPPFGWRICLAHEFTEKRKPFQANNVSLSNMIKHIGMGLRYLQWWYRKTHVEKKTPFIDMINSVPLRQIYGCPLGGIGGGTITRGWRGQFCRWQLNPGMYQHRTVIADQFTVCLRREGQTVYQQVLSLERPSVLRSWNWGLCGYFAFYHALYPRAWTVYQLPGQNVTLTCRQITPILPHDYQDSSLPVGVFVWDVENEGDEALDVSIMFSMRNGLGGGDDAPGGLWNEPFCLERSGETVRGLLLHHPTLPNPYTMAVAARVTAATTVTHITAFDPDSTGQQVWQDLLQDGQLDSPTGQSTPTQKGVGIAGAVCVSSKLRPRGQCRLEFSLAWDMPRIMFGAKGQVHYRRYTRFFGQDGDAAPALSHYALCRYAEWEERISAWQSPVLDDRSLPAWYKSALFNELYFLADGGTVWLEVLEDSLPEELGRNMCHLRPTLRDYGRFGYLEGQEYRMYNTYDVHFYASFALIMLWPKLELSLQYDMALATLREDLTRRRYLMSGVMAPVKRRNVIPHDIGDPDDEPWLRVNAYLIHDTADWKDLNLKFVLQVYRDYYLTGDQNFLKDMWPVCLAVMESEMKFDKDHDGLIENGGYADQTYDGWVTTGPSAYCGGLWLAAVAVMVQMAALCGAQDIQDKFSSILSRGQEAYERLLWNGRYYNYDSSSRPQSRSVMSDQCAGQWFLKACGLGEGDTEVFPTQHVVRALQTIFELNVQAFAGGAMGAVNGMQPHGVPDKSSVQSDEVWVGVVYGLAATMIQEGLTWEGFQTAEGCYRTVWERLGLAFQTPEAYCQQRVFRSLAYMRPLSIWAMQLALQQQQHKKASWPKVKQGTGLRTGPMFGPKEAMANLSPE
PPARA ligand-binding domain: Peroxisome proliferator-activated receptor alpha, ligand-binding domain (PPARA, Homo sapiens, UniProt Q07869)
Sequence of UniProt Q07869 (whole entry, looked up): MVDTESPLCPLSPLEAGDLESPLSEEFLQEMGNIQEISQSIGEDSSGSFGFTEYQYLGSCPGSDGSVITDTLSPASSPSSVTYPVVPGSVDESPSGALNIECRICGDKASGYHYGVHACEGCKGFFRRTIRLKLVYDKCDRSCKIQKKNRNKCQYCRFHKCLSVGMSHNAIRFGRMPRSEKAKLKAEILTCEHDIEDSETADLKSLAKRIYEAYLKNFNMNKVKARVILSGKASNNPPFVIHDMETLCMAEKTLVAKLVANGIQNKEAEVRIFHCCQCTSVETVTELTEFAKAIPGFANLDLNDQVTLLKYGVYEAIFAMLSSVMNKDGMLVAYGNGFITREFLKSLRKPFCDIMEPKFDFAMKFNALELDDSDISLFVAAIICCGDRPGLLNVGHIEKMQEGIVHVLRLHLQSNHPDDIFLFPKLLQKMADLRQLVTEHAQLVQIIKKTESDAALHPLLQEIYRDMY
PIK3CG: Phosphatidylinositol 4,5-bisphosphate 3-kinase catalytic subunit gamma isoform (PIK3CG, Homo sapiens, UniProt P48736)
Sequence of UniProt P48736 (whole entry, looked up): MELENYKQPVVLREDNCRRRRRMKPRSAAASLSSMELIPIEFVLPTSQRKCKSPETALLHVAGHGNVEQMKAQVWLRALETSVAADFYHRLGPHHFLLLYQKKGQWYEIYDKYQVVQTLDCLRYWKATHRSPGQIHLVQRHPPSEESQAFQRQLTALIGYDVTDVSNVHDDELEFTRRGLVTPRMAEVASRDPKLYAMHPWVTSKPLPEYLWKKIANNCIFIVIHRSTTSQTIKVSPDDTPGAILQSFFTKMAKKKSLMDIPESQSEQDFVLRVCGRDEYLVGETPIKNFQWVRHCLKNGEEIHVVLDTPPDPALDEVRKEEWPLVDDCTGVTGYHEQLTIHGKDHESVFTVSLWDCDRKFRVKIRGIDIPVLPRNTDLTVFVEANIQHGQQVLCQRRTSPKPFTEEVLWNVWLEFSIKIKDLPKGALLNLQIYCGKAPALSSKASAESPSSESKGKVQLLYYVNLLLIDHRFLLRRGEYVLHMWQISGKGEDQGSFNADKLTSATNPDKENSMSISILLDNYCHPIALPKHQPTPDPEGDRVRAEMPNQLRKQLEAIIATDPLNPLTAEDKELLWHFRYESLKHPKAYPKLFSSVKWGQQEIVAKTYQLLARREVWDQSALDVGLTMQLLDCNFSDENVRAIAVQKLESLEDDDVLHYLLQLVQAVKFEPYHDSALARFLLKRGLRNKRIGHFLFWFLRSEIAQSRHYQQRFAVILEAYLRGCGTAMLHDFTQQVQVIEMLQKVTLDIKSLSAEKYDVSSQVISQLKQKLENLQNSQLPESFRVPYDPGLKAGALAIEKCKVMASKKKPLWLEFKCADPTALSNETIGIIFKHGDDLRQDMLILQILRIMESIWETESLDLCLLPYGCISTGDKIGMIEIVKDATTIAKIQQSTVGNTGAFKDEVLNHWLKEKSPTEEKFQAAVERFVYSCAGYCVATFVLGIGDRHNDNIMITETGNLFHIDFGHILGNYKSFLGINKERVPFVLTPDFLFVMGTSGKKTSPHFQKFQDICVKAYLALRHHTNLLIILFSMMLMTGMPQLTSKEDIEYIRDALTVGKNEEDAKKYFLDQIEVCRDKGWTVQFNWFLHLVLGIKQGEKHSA
Sensor histidine kinase AirS: Sensor histidine kinase AirS (Staphylococcus aureus, UniProt Q2FX96)
Chymotrypsinogen A: Chymotrypsinogen A (Bos taurus, UniProt P00766)
CHEK1: Serine/threonine-protein kinase Chk1 (CHEK1, Homo sapiens, UniProt O14757)
Sequence of UniProt O14757 (whole entry, looked up): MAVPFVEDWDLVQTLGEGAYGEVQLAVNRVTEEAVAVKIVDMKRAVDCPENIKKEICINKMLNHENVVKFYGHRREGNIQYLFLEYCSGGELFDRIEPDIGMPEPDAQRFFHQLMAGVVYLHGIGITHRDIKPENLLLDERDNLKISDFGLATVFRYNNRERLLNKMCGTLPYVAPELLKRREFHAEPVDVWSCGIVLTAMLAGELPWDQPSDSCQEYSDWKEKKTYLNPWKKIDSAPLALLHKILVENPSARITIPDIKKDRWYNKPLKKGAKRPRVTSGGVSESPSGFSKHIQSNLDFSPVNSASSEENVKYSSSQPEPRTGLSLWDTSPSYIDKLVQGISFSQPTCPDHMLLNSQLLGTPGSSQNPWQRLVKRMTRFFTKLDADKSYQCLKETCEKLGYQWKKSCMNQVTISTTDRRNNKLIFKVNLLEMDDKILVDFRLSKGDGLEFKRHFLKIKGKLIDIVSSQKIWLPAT
HDAC2: Histone deacetylase 2 (HDAC2, Homo sapiens, UniProt Q92769)
Sequence of UniProt Q92769 (whole entry, looked up): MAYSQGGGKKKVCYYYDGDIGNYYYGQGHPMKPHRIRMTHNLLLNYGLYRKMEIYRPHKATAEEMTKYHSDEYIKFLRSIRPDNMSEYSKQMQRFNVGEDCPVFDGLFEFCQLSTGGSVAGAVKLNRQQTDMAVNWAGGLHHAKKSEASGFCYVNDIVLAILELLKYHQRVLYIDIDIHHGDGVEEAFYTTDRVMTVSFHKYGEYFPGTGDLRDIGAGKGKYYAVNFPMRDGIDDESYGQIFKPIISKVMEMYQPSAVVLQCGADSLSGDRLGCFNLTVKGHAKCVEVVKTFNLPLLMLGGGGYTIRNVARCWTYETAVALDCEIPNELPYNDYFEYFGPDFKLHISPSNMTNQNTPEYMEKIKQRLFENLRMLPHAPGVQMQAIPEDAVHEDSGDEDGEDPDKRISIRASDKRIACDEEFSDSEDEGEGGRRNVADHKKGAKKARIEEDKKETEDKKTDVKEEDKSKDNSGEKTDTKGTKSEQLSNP
Sequence of UniProt P10997 (whole entry, looked up): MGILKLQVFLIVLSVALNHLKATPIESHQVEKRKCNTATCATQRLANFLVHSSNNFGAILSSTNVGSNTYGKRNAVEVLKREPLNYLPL
Sequence of UniProt P09917 (whole entry, looked up): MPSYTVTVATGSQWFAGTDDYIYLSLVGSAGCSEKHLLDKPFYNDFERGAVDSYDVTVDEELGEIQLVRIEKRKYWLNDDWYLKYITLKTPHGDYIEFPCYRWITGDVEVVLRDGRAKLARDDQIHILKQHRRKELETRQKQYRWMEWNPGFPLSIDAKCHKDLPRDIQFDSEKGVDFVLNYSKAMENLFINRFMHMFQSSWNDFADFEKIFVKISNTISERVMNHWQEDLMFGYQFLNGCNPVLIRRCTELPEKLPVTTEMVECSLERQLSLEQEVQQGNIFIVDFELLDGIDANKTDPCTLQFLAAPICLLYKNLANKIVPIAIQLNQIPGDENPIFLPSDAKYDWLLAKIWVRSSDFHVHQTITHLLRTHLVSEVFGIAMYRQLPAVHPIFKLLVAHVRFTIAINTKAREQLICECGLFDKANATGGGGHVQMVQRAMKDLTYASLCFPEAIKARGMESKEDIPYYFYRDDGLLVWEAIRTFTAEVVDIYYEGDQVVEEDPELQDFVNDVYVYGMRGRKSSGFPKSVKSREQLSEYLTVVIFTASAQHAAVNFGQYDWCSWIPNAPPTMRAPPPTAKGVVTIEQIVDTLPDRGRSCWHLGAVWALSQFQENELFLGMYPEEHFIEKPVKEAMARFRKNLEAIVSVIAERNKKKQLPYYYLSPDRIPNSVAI
Sequence of UniProt Q8TBX8 (whole entry, looked up): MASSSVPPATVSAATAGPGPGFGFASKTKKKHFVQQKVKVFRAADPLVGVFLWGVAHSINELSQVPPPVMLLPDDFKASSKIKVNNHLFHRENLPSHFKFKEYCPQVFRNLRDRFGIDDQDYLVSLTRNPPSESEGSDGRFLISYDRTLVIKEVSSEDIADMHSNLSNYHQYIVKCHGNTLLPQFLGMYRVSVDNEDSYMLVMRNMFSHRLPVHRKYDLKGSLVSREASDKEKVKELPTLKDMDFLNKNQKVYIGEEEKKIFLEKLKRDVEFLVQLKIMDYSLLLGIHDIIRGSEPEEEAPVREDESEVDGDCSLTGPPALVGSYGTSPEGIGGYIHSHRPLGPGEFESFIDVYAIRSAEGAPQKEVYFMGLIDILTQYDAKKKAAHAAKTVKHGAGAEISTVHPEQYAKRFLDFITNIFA
Sequence of UniProt Q99436 (whole entry, looked up): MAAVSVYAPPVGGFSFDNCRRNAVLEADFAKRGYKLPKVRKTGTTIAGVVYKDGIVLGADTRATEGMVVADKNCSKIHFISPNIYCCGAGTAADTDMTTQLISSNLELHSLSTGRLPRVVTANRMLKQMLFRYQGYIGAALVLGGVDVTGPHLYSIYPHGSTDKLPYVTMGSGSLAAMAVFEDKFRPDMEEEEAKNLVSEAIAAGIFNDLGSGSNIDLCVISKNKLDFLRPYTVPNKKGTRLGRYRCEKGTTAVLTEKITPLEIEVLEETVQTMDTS

`OC[C@@H]1[C@@H](O)[C@H](O)[C@@H](O)CN1CCCCCOCc1ccc(-c2ccnc(F)c2)cc1` has an IC50 of 0.004 µM (GBA2; inhibitor, 4MU-β-D-glucopyranoside; HEK293T homogenates overexpressing GBA2).
With `Cc1c(Cc2cccc(OC(C)C(=O)O)c2)c2ccc(C(=O)NC(C)c3ccc(C(C)(C)C)cc3)cc2n1C` (mixture of isomers) the IC50 was 3.3 µM (PPARA ligand-binding domain; reporter gene, luciferase reporter; HEK293T, Gal4-PPARα LBD).
`CC(C)(C)COCCOCCN1C[C@H](O)[C@@H](O)[C@H](O)[C@@H]1CO` has an IC50 of 0.0023 µM (GBA2; inhibitor, 4MU-β-D-glucopyranoside; HEK293T homogenates overexpressing GBA2).
For `O=C1Nc2ccccc2C12NC(c1ccc(F)cc1)C1(C(=O)Nc3ccccc31)N2Cc1ccc(F)cc1` (stereo not drawn), the IC50 was 0.0391 µM (PIK3CG; enzyme activity, inhibitor, ADP detection).
For `Cc1c(Cc2cccc(OC(C)C(=O)O)c2)c2ccc(C(=O)NC(C)c3cccc(C(C)(C)C)c3)cc2n1C` (mixture of isomers), the IC50 was 15.1 µM (PPARA ligand-binding domain; reporter gene, luciferase reporter; HEK293T, Gal4-PPARα LBD).
For `OC[C@@H]1[C@@H](O)[C@H](O)[C@@H](O)CN1CCCCCOCCC12CC3CC(CC(C3)C1)C2`, the IC50 was 0.005 µM (GBA2; inhibitor, 4MU-β-D-glucopyranoside; HEK293T homogenates overexpressing GBA2).
For `CC(C)C[C@H](NC(=O)[C@H](Cc1ccccc1)NC(=O)[C@H](CCCNC(=N)N)NC(=O)[C@H](C)N)B(O)O`, the IC50 was 0.045 µM (Proteasome subunit beta type-3/PSMB7 (Homo sapiens, UniProt P49720+Q99436); trypsin-like activity, inhibitor; human proteasome 10 nM; together with: Boc-LRR-AMC).
For `Oc1ccc([C@H]2CCc3ccc(O)cc3O2)cc1`, the IC50 was > 10 µM (ALOX5 (Homo sapiens, UniProt P09917); enzyme activity, inhibitor).
For `Cc1c(Cc2ccc(OC(C)C(=O)O)cc2)c2ccc(C(=O)NC(C)c3ccc(C(F)(F)F)cc3)cc2n1C` (mixture of isomers), the IC50 was 4.44 µM (PPARA ligand-binding domain; reporter gene, luciferase reporter; HEK293T, Gal4-PPARα LBD).
`CCC1(CC)CC(=O)N(C2c3cc(C(=O)NC4c5ccccc5CC4O)ccc3OC2(C)COC)C(=N)N1` (stereo not drawn) has an IC50 of > 20 µM (Cytochrome P450 2C8 (CYP2C8, Homo sapiens, UniProt P10632); enzyme activity, inhibitor).
The IC50 of `COc1ccc2c(c1)N(C1=C(c3ccc(O)cc3)C(=O)NC1=O)CC2` is reported as > 1250 µM (Sensor histidine kinase AirS; autophosphorylation, inhibitor, BODIPY-FL-ATPγS in-gel fluorescence; lower bound of confidence interval).
The IC50 of `OC[C@@H]1[C@@H](O)[C@H](O)[C@@H](O)CN1CCCC/C=C\C12CC3CC(CC(C3)C1)C2` is reported as 0.005 µM (GBA2; inhibitor, 4MU-β-D-glucopyranoside; HEK293T homogenates overexpressing GBA2).
The IC50 of `COc1cc(-c2nn(C3CCC(N4CCN(C(C)=O)CC4)CC3)c3ncnc(N)c23)ccc1NC(=O)c1cc2ccccc2n1C` (stereo not drawn) is reported as 0.068 µM (ERBB3 (Homo sapiens, UniProt P21860); cell-free assay, TR-FRET).
With `O=C1CCN1C(=O)NCc1ccccc1` the IC50 was 12 µM (Chymotrypsinogen A; enzyme activity, inhibitor, fluorescence).
`Cc1cc(NC2CCN(C)CC2)ccc1-c1cc2c(N3CCC[C@H](C(=O)NCc4ccc(OC(F)(F)F)cc4)C3)ncnc2[nH]1` has an IC50 of 7.56 µM (PAK4 (Homo sapiens, UniProt O96013); enzyme activity, inhibitor, mobility shift).
For `COC(=O)CC(c1cc2ccccc2n(C)c1=O)c1c(O)cc(O)c2c(=O)c(O)c(-c3ccc(O)c(O)c3)oc12` (stereo not drawn), the IC50 was < 10 µM (B4GALT1 (Homo sapiens, UniProt P15291); inhibitor, UDP-Glo luminescence; two-point screening estimate).
`COc1ccc(N(C)C2=C(c3ccc(F)cc3)C(=O)NC2=O)cc1` has an IC50 of > 1250 µM (Sensor histidine kinase AirS; autophosphorylation, inhibitor, BODIPY-FL-ATPγS in-gel fluorescence; lower bound of confidence interval).
With `Cc1ccc(NC(=O)C(C(F)(F)F)C(F)(F)F)cn1` the IC50 was 8.7 µM (Chymotrypsinogen A; enzyme activity, inhibitor, fluorescence).
With `Cc1nn(-c2cccc(N)c2)c(=O)c2cnc(Nc3ccc(N4CCNCC4)cc3)nc12` the IC50 was > 10 µM (PAK5 (Homo sapiens, UniProt Q9P286); enzyme activity, inhibitor).
For `CCCCCCCCCCCCNC(=S)NCCCC[C@H](NS(C)(=O)=O)C(=O)N[C@H](C)C(=O)N[C@@H](CCCNC(=N)N)C(N)=O`, the IC50 was 0.05 µM (SIRT2 (Homo sapiens, UniProt Q8IXJ6); enzyme activity, inhibitor).
For `O=C(COc1ccc2ccccc2c1)NCc1ccc(OP(=O)(O)O)c(OP(=O)(O)O)c1`, the IC50 was 18.8 µM (Signal transducer and activator of transcription 5A, SH2 (Homo sapiens, UniProt P42229); ligand displacement, FP).
`CC(C)(C)OC(=O)N1CCC(Oc2ccc(Cl)cc2NC(=O)Nc2cnc(C#N)cn2)C1` (stereo not drawn) gave an IC50 of > 10 µM (CHEK1; enzyme activity, inhibitor).
With `OC[C@@H]1[C@@H](O)[C@H](O)[C@@H](O)CN1CCCCCOCc1ccc(-c2ccccc2F)cc1` the IC50 was 0.002 µM (GBA2; inhibitor, 4MU-β-D-glucopyranoside; HEK293T homogenates overexpressing GBA2).
`O=C1CC(c2ccccc2)N1S(=O)(=O)c1cccc(Cl)c1` (stereo not drawn) gave an IC50 of 0.4 µM (Chymotrypsinogen A; enzyme activity, inhibitor, fluorescence).
For `Cc1c(Cc2cc(Cl)cc(O[C@@H](C)C(=O)O)c2)c2ccc(C(=O)N[C@@H](C)c3ccc(C(C)(C)C)cc3)cc2n1C`, the IC50 was 36.2 µM (PPARA ligand-binding domain; reporter gene, luciferase reporter; HEK293T, Gal4-PPARα LBD).
`COc1ccccc1N1CCN(C(=O)c2ccc(Cl)c([N+](=O)[O-])c2)CC1` gave an IC50 of 1.07 µM (SEC14 (Saccharomyces cerevisiae, UniProt P24280); enzyme activity, inhibitor, radiometric).
`OC[C@H]1c2[nH]cnc2[C@H](O)[C@@H](O)[C@@H]1O` has an IC50 of > 50 µM (GBA2; HEK293 lysate overexpressing enzyme; pH 5.8, together with: 4-MU-β-D-glucopyranoside).
The IC50 of `CN(C)c1ccc(/N=N/c2ccc(C(=O)NCCCCN)cc2)cc1` is reported as 3 µM (IAPP (Homo sapiens, UniProt P10997); ThT displacement, ThT fluorescence; pH 7.4, preformed target-ThT complex, together with: 5 µM ThT).
With `CC(C)(C)c1ccc(NC(=O)C(C(F)(F)F)C(F)(F)F)cc1` the IC50 was > 100 µM (Chymotrypsinogen A; enzyme activity, inhibitor, fluorescence).
The IC50 of `Nc1ncc2c(n1)-c1c([nH]c3ccc(C4=CCOCC4)cc13)CCC2` is reported as 0.067 µM (PIP4K2C (Homo sapiens, UniProt Q8TBX8); target engagement in cells, BRET).
For `CC(C)Cn1cc(Cc2cccc(OC(C)(C)C(=O)O)c2)c2ccc(C(=O)N[C@@H](C)c3cccc(C(C)(C)C)c3)cc21`, the IC50 was 0.24 µM (PPARA ligand-binding domain; reporter gene, luciferase reporter; HEK293T, Gal4-PPARα LBD).
`Cc1cc(C)c(S(=O)(=O)N(CC(=O)O)c2ccc(Nc3ccnc(N4CCCC4)n3)cc2)c(C)c1` gave an IC50 of > 100 µM (CDK9 (Homo sapiens, UniProt P50750); enzyme activity, inhibitor).
For `CC(C)(C)OC(=O)COc1ccccc1NC(=O)C(C(F)(F)F)C(F)(F)F`, the IC50 was 15 µM (Chymotrypsinogen A; enzyme activity, inhibitor, fluorescence).
For `COc1cc2c(cc1OC)-c1cc3ccc(OC)c(OC)c3c[n+]1CC2.[Cl][Fe-]([Cl])([Cl])[Cl]`, the IC50 was 429 µM (lipase; enzyme activity, inhibitor; together with: p-nitrophenyl butyrate).
`O=C(CCc1ccc(CNC(C(=O)O)C2CCCCC2)cn1)NO` (stereo not drawn) gave an IC50 of 1.74 µM (HDAC2; enzyme activity, inhibitor).
`CC(C)c1ccc(COc2ccc(Cl)cc2NC(=O)Nc2cnc(C#N)cn2)cc1` has an IC50 of 6.05 µM (CHEK1; enzyme activity, inhibitor).
For `Cc1ccc(NC(=O)C(C(F)(F)F)C(F)(F)F)cc1`, the IC50 was 39 µM (Chymotrypsinogen A; enzyme activity, inhibitor, fluorescence).
`O=C1Nc2ccccc2C12NC(c1ccc(Cl)c(Cl)c1)C1(C(=O)Nc3ccccc31)N2Cc1ccc(Cl)c(Cl)c1` (stereo not drawn) has an IC50 of 0.0201 µM (PIK3CG; enzyme activity, inhibitor, ADP detection).
For `CCOc1ccccc1NC(=O)C(C(F)(F)F)C(F)(F)F`, the IC50 was 30 µM (Chymotrypsinogen A; enzyme activity, inhibitor, fluorescence).
With `OC[C@@H]1[C@@H](O)[C@H](O)[C@@H](O)CN1CCCCCOCC1CCCCC1` the IC50 was 0.004 µM (GBA2; inhibitor, 4MU-β-D-glucopyranoside; HEK293T homogenates overexpressing GBA2).
For `COc1ccccc1/C=C1\C(=O)N(C)c2ccc(N(C)c3nc(C)nc4ccccc34)cc21`, the IC50 was 0.157 µM (PIK3CG; enzyme activity, inhibitor, ADP detection).
The IC50 of `OC[C@@H]1[C@@H](O)[C@H](O)[C@@H](O)CN1CC(F)(F)CCCOCc1ccc(-c2ccccc2)cc1` is reported as 0.01 µM (GBA2; inhibitor, 4MU-β-D-glucopyranoside; HEK293T homogenates overexpressing GBA2).
`Cc1c(Cc2cccc(OC(C)(C)C(=O)O)c2)c2ccc(C(=O)N[C@@H](C)c3cccc(Br)c3)cc2n1C` has an IC50 of 60.6 µM (PPARA ligand-binding domain; reporter gene, luciferase reporter; HEK293T, Gal4-PPARα LBD).
`C[C@H](OCCCCCN1C[C@H](O)[C@@H](O)[C@H](O)[C@H]1CO)c1ccc(-c2ccccc2)cc1` gave an IC50 of 0.003 µM (GBA2; inhibitor, 4MU-β-D-glucopyranoside; HEK293T homogenates overexpressing GBA2).
For `Cc1c(COc2cc(OCc3cccc(C#N)c3)c(CN3CCCC[C@H]3C(=O)O)cc2Cl)cccc1-c1cccc(OCCCCCCC(=O)NO)c1`, the IC50 was 0.0305 µM (HDAC2; enzyme activity, inhibitor).
With `CN(Cc1ccccc1)C(=O)c1ccccc1NC(=O)C(C(F)(F)F)C(F)(F)F` the IC50 was 262 µM (Chymotrypsinogen A; enzyme activity, inhibitor, fluorescence).
`Cc1c(Cc2cccc(OC(C)C(=O)O)c2)c2ccc(C(=O)N[C@@H](C)c3cccc(C(F)(F)F)c3)cc2n1C` (stereo partly drawn) gave an IC50 of 6.14 µM (PPARA ligand-binding domain; reporter gene, luciferase reporter; HEK293T, Gal4-PPARα LBD).
`CCN(CC)CC(=O)Nc1cccc(-n2cc(-c3ccc4ccc(-c5cn(-c6cccc(NC(=O)CN(CC)CC)c6)nn5)cc4c3)nn2)c1` gave an IC50 of > 10 µM (MAP3K8 (Homo sapiens, UniProt P41279); enzyme activity, inhibitor).
